Experimental data from different studies.
Protocols differ between the studies behind these lines.
Ubiquitin carboxyl-terminal hydrolase 39 ZnF-UBD domain: Ubiquitin carboxyl-terminal hydrolase 39, ZnF-UBD domain (Homo sapiens, UniProt Q53GS9)
Chain of UniProt Q53GS9 (whole entry, looked up): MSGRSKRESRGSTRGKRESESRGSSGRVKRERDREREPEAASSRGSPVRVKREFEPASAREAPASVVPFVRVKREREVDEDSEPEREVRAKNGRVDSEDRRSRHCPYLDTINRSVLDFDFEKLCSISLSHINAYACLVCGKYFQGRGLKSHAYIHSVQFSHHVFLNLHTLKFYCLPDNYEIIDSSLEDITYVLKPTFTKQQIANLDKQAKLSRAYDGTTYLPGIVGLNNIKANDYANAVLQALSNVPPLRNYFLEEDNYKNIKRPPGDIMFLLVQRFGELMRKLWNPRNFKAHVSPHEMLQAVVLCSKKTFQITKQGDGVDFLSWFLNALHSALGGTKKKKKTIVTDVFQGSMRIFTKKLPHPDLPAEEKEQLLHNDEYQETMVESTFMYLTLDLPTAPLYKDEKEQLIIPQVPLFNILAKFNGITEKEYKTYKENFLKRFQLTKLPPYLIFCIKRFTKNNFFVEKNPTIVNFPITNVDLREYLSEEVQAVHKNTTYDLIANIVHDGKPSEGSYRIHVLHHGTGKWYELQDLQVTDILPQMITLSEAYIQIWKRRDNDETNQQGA

| Compound | target or system | test | system | setting | scale | quantity | result |
| --- | --- | --- | --- | --- | --- | --- | --- |
| O=C[C@@H](O)[C@@H](O)[C@H](O)[C@H](O)COP(=O)(O)O | – | binding, equilibrium dialysis LC-MS | – | 5 µM, thermostabilized A2AR-BRIL construct | relative to: no-protein control, direction not given | z-scored log2 fold change | 0.126 |
| O=C(O)CCc1nc2ncccn2n1 | Ubiquitin carboxyl-terminal hydrolase 39 ZnF-UBD domain | – | – | – | – | Kd | > 1000 µM |
| Cn1cc(-c2ccc(-c3cncc(Cl)c3N3CCC4(CCNC4=O)CC3)cc2)cn1 | COLO 205 | gene expression, microarray, refers to: ACTA2 mRNA | – | concentration not given, 2 h | relative to: untreated cells | log2 fold change | 2.36 |
| CCc1cc2c(cc1N1CCC(N3CCOCC3)CC1)C(C)(C)c1[nH]c3cc(C#N)ccc3c1C2=O | NLRP3 inflammasome (mouse) | – | mouse BMDM | 10 µM | – | inhibition | 43.8% |
| C[N+](C)(C)CC(O)CC(=O)[O-] (stereo not drawn) | – | binding, equilibrium dialysis LC-MS | – | 5 µM, thermostabilized A2AR-BRIL construct | relative to: no-protein control, direction not given | z-scored log2 fold change | 0.0559 |
| O=C(NOCC1CC1)c1ccc(F)c(F)c1Nc1ccc(I)cc1Cl | iCell Cardiomyocytes (hiPSC-derived) | cellular impedance | – | concentration not given, 24 h | relative to: control | cell index | 103% |
| O=C(NC[C@H](O)CO)c1ccncc1Nc1ccc(I)cc1F | NLRP3 inflammasome (mouse) | – | mouse BMDM | 10 µM | – | inhibition | 0.774% |
| OC[C@H]1O[C@H](OC[C@H]2O[C@H](OC[C@H]3O[C@H](O[C@]4(CO)O[C@H](CO)[C@@H](O)[C@@H]4O)[C@H](O)[C@@H](O)[C@@H]3O)[C@H](O)[C@@H](O)[C@H]2O)[C@H](O)[C@@H](O)[C@H]1O | – | binding, equilibrium dialysis LC-MS | – | 5 µM, thermostabilized A2AR-BRIL construct | relative to: no-protein control, direction not given | z-scored log2 fold change | 0.572 |
| Cc1cc(Nc2cc(CN3CCOCC3)c3nc(C)c(Cc4ccc(Cl)cc4F)n3n2)n[nH]1 | NLRP3 inflammasome (mouse) | – | mouse BMDM | 10 µM | – | inhibition | -8.41% |
| OCCn1cc(-c2ccc3c(c2)CC/C3=N\O)c(-c2ccncc2)n1 | iCell Cardiomyocytes (hiPSC-derived) | xCELLigence Cardio impedance | – | concentration not given, 2 h | relative to: control | beat rate | 119% |
| COc1cc2nccc(Oc3ccc(NC(=O)C4(C(=O)Nc5ccc(F)cc5)CC4)cc3)c2cc1OC | NLRP3 inflammasome (mouse) | – | mouse BMDM | 10 µM | – | inhibition | 5.9% |
| O=C(O)CCc1ccno1 | Ubiquitin carboxyl-terminal hydrolase 39 ZnF-UBD domain | – | – | – | – | Kd | > 1000 µM |
| COc1cc(N2CCC(N3CCN(C)CC3)CC2)ccc1Nc1ncc(Cl)c(Nc2ccccc2S(=O)(=O)C(C)C)n1 | iCell Cardiomyocytes (hiPSC-derived) | xCELLigence Cardio impedance | – | concentration not given, 2 h | relative to: control | beat rate | 76.7% |
| O=CNc1ccccc1C(=O)O | – | binding, equilibrium dialysis LC-MS | – | 5 µM, thermostabilized A2AR-BRIL construct | relative to: no-protein control, direction not given | z-scored log2 fold change | -0.0152 |
| CC#CC(=O)N1CC[C@@H](n2c(=O)n(-c3ccc(Oc4ccccc4)cc3)c3c(N)ncnc32)C1 | NLRP3 inflammasome (mouse) | – | mouse BMDM | 10 µM | – | inhibition | 47.3% |
| CC1CCC(CC(=O)Nc2nnc(S(N)(=O)=O)s2)CC1 (stereo not drawn) | Alpha-carbonic anhydrase (Enterococcus faecium, UniProt Q3XYE8) | CO2 hydration, inhibitor, stopped-flow kinetics | – | – | – | Ki | 0.0298 µM |
| Cc1ccc(F)c(NC(=O)Nc2ccc(-c3cccc4[nH]nc(N)c34)cc2)c1 | iCell Cardiomyocytes (hiPSC-derived) | cellular impedance | – | concentration not given, 24 h | relative to: control | cell index | 100% |
| O=c1[nH]c(=O)c2ncn([C@@H]3O[C@H](COP(=O)(O)O)[C@@H](O)[C@H]3O)c2[nH]1 | – | binding, equilibrium dialysis LC-MS | – | 5 µM, thermostabilized A2AR-BRIL construct | relative to: no-protein control, direction not given | z-scored log2 fold change | 0.186 |
| OC(CCN1CCCCC1)(c1ccccc1)C1CC2C=CC1C2 (stereo not drawn) | – | resting-state EEG | healthy elderly humans | oral, 2 mg, eyes open, LS mean | relative to: baseline | change, Gamma EEG power, in O2-Pz | 7.9% |
| C[C@@H](O)C=O | – | binding, equilibrium dialysis LC-MS | – | 5 µM, thermostabilized A2AR-BRIL construct | relative to: no-protein control, direction not given | z-scored log2 fold change | 0.513 |
| CS(=O)(=O)N1CCN(Cc2cc3nc(-c4cccc5[nH]ncc45)nc(N4CCOCC4)c3s2)CC1 | iCell Cardiomyocytes (hiPSC-derived) | CellTiter-Glo | – | concentration not given, 24 h | relative to: control | ATP level | 85.9% |

A few entries again:
| Compound | target or system | test | system | setting | scale | quantity | result |
| --- | --- | --- | --- | --- | --- | --- | --- |
| COc1cc2nccc(Oc3ccc(NC(=O)C4(C(=O)Nc5ccc(F)cc5)CC4)cc3)c2cc1OC | NLRP3 inflammasome (mouse) | – | mouse BMDM | 10 µM | – | inhibition | 5.9% |
| O=C(O)CCc1ccno1 | Ubiquitin carboxyl-terminal hydrolase 39 ZnF-UBD domain | – | – | – | – | Kd | > 1000 µM |
